Published values from different studies.
Each line is one published result; not all experiments were run side by side. “And” joins repeats or separate records; there may be more than shown. Numbers after ± are the reported error.
DRD3: D(3) dopamine receptor (DRD3, Homo sapiens, UniProt P35462)
UniProt P35462, sequence (whole entry, looked up): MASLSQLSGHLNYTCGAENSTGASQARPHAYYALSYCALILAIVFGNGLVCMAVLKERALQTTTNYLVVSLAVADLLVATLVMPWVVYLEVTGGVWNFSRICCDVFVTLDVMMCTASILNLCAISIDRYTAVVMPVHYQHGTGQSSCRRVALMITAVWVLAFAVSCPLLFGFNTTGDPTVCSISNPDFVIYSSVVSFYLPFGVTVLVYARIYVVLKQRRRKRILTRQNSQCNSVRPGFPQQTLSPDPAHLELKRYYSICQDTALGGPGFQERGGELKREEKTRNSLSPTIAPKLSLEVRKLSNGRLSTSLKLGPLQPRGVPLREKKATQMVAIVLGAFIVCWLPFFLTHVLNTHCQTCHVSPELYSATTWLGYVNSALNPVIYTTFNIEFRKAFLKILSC
Melanocortin receptor 4: Melanocortin receptor 4 (Mus musculus, UniProt P56450)
UniProt P56450, sequence (whole entry, looked up): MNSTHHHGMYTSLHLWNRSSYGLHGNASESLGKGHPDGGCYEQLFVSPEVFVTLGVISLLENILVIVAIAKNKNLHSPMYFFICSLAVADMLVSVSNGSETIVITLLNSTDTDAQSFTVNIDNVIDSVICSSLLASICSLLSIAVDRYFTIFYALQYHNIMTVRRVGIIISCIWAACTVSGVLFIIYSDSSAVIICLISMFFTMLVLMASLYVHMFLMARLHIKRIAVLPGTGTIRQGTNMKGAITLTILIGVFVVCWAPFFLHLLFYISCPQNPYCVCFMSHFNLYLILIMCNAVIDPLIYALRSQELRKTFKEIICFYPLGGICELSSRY
RXFP3: Relaxin-3 receptor 1 (RXFP3, Homo sapiens, UniProt Q9NSD7)
UniProt Q9NSD7, sequence (whole entry, looked up): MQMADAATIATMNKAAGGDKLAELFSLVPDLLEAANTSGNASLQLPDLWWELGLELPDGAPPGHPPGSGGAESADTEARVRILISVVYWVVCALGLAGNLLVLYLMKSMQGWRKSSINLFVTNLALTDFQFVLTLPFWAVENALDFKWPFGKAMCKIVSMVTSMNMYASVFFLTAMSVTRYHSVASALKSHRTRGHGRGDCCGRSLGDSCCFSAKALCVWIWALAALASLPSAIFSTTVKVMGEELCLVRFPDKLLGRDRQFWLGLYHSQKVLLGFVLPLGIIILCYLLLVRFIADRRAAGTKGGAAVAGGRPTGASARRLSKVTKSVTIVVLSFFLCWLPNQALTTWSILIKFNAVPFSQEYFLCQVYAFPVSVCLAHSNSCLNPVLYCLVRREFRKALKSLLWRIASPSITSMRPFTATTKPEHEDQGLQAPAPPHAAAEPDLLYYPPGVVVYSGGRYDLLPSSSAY
UniProt P00747, sequence (whole entry, looked up): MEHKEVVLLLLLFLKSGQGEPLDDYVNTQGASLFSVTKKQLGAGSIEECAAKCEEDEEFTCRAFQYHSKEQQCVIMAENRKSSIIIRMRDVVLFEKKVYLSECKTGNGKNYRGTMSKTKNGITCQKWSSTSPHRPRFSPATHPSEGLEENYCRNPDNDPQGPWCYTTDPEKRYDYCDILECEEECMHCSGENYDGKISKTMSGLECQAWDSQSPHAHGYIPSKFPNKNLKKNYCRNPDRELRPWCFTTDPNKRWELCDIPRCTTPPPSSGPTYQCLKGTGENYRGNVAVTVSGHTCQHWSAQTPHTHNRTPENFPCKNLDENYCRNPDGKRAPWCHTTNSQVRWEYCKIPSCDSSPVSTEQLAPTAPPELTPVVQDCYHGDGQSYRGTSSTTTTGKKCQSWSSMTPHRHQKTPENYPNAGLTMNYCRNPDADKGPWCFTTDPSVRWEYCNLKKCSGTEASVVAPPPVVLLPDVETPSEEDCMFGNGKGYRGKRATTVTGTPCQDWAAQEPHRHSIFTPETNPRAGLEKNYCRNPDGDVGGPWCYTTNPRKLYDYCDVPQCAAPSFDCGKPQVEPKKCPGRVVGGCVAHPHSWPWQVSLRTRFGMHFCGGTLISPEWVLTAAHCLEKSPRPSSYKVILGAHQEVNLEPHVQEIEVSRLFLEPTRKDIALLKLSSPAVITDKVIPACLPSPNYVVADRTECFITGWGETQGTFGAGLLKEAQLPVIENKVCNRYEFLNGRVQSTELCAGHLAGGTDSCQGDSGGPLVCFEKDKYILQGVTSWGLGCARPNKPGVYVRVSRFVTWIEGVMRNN
UniProt P21554, sequence (whole entry, looked up): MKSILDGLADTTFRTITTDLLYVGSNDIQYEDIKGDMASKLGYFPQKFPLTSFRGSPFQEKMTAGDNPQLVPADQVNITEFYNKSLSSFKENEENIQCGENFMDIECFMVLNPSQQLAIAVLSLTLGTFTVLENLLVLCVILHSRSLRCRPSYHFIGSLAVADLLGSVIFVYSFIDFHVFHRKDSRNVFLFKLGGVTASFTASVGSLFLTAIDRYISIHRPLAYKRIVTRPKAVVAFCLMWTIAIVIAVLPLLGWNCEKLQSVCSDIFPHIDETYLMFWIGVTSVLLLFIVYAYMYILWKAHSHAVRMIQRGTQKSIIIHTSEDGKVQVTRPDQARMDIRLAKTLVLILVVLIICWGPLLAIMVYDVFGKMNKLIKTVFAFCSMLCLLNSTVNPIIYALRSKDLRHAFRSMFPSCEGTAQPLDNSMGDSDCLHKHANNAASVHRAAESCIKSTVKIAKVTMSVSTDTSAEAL
UniProt A7T1N0, sequence (whole entry, unmodified, looked up): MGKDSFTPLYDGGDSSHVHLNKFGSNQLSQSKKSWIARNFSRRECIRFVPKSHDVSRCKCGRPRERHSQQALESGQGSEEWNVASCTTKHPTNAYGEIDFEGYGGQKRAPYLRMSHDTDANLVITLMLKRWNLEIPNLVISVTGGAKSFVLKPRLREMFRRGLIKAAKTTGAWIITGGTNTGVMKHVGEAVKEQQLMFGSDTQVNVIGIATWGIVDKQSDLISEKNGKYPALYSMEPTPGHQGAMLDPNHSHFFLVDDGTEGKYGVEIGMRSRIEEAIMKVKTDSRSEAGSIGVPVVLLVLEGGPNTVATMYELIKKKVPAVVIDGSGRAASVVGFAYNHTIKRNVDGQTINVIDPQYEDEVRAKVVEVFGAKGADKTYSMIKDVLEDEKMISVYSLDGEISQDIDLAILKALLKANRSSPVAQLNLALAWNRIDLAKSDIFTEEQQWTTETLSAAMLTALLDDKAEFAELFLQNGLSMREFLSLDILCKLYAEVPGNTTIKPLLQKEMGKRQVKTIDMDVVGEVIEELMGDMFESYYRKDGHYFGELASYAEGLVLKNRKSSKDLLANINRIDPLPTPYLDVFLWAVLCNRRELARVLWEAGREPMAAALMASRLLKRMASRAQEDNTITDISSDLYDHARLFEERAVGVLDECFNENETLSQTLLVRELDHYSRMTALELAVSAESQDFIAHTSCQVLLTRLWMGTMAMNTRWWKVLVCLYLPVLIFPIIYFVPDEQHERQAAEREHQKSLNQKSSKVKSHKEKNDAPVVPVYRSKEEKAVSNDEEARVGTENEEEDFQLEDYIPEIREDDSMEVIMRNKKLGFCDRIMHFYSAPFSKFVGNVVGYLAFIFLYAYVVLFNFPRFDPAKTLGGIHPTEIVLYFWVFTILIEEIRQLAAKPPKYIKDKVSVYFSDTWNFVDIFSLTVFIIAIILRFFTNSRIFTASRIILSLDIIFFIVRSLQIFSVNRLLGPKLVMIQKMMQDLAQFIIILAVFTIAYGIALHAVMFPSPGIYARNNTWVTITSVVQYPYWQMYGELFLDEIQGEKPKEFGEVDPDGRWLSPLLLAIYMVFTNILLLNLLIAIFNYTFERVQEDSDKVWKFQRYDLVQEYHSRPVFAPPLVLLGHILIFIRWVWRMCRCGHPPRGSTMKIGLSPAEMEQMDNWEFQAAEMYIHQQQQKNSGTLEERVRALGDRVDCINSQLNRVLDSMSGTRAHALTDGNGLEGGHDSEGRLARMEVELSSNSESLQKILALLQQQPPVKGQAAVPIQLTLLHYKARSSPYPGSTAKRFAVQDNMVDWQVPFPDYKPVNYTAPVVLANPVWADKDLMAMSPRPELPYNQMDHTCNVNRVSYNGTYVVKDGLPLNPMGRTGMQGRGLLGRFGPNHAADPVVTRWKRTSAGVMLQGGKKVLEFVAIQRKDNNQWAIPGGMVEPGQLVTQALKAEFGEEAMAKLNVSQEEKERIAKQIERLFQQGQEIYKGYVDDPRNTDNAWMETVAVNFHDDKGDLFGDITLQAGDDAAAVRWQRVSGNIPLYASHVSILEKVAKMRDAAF

CCCCC/C=C\C/C=C\C/C=C\C/C=C\CCCC(=O)NCCc1ccc(O)c(O)c1 — EC50 (Transient receptor potential cation channel subfamily V member 1 (Trpv1, Mus musculus, UniProt Q704Y3, T551V); ion current, agonist, whole-cell patch clamp; 24 °C, T551V, +80 mV): 90 ± 40 nM
CC(C)C[C@@H]1NC(=O)[C@H](Cc2ccc(O)cc2)NC(=O)[C@H](CO)NC(=O)[C@H](C)NC(=O)[C@@H](NC(=O)[C@@H]2CCCN2C(=O)[C@H](CC(N)=O)NC(=O)[C@H](Cc2ccc(O)cc2)NC(=O)[C@H](C)NC(=O)[C@H](C)NC(=O)[C@H](C)NC(=O)[C@@H](N)CC(N)=O)CSC1=O — EC50 (Accessory gene regulator protein C (Staphylococcus epidermidis, UniProt Q8VSX2)): > 2000 nM
CCCN1CCO[C@@H]2c3cc(O)ccc3OC[C@H]21 — EC50 (DRD3; cell growth or viability, thymidine uptake): 0.78 nM
C[C@@H]1NC(=O)[C@H](CC(N)=O)NC(=O)[C@H](Cc2c[nH]c3ccccc23)NC(=O)[C@H](CCCNC(=N)N)NC(=O)[C@@H](Cc2ccccc2)NC(=O)[C@H](Cc2c[nH]cn2)NC(=O)[C@@H](NC(=O)[C@@H](N)Cc2ccc(O)cc2)CCCn2nncc2-c2cccc(c2)-c2cnnn2CCC[C@@H](C(=O)N[C@@H](Cc2ccc(O)cc2)C(N)=O)NC(=O)[C@H](Cc2ccccc2)NC1=O — EC50 (Melanocortin receptor 4; agonist): 539 ± 154 nM
CC[C@H](C)[C@H](NC(=O)[C@]1(C)CCCC=CCCC[C@](C)(NC(=O)[C@H](CCC(=O)O)NC(=O)[C@H](CCCNC(=N)N)NC(=O)CNC(=O)[C@H](CO)NC(=O)[C@H](CC(C)C)NC(=O)[C@@H](N)CCCNC(=N)N)C(=O)N[C@@H]([C@@H](C)CC)C(=O)N[C@@H](CCCNC(=N)N)C(=O)N[C@@H](C)C(=O)N1)C(=O)N[C@@H](Cc1ccccc1)C(=O)N[C@H](C(=O)N[C@@H](CO)C(=O)NCC(=O)NCC(=O)N[C@@H](CO)C(=O)N[C@@H](CCCNC(=N)N)C(=O)N[C@@H](Cc1c[nH]c2ccccc12)C(=O)O)[C@@H](C)O — EC50 (RXFP3; cAMP, agonist): 42.6 nM
CC[C@H](C)[C@H](NC(=O)[C@H](CC(N)=O)NC(=O)[C@H](Cc1c[nH]cn1)NC(=O)[C@@H](NC(=O)[C@@H](NC(=O)[C@H](CCCNC(=N)N)NC(=O)[C@@H](NC(=O)[C@@H](N)CCC(=O)O)[C@@H](C)CC)[C@@H](C)CC)[C@@H](C)O)C(=O)N[C@@H](Cc1ccccc1)C(=O)N[C@@H](Cc1ccccc1)C(=O)N[C@@H](CC(N)=O)C(=O)N[C@@H](Cc1ccccc1)C(=O)N[C@@H](Cc1ccccc1)C(=O)N[C@@H](CCCCN)C(=O)N[C@@H](CCCNC(=N)N)C(=O)N[C@@H](CCCNC(=N)N)C(=O)O — EC50 (histidine kinase ComD (Streptococcus pneumoniae serotype 4, UniProt A0A0H2US84); reporter gene, agonist; Streptococcus pneumoniae, TIGR4 comX::lacZ; 30 min, pH 7.3, 37 °C): > 10000 nM
C[C@@H]1NC(=O)[C@H](CC(N)=O)N2C[C@H](Cc3c[nH]c4ccccc34)NC(=O)[C@H](CSCC2=O)NC(=O)[C@H](CCCNC(=N)N)NC(=O)[C@@H](Cc2ccccc2)NC(=O)[C@H](Cc2c[nH]cn2)NC(=O)[C@@H](NC(=O)[C@@H](N)Cc2ccc(O)cc2)CSSC[C@@H](C(=O)N[C@@H](Cc2ccc(O)cc2)C(N)=O)NC(=O)[C@H](Cc2ccccc2)NC1=O — EC50 (Melanocortin receptor 4; reporter gene, agonist): ~5 nM and 4.7 nM
CCCCc1cc(Cc2ccccc2)cc2c1NCCC2NC(=O)C(N)Cc1c(C)cc(O)cc1C (stereo not shown) — EC50 (Delta-type opioid receptor (Oprd1, Rattus norvegicus, UniProt P33533); GTPγS binding, agonist, radiometric; cell membranes): 250 nM
CC1(C(=O)O)CCCC2(C)C1CCC1(C)c3cocc3CCC12 (stereo not shown) — EC50 (Progesterone receptor (PGR, Homo sapiens, UniProt P06401); binding, fluorescence polarization competition; ligand-binding domain): 5600 nM
CCc1noc(CC)c1C(=O)O[C@H]1C(C)=C[C@]23C(=O)[C@@H](C=C(CO)[C@@H](O)[C@]12O)[C@H]1[C@@H](C[C@H]3C)C1(C)C — EC50 (Protein kinase C alpha type (PRKCA, Homo sapiens, UniProt P17252); enzyme activity, activator): 0.5 nM
CC(C)C[C@@H]1NC(=O)[C@H](Cc2ccc(O)cc2)NC(=O)[C@H](CO)NC(=O)[C@H](C)NC(=O)[C@@H](NC(=O)[C@@H](NC(=O)[C@H](CC(N)=O)NC(=O)[C@H](Cc2ccc(O)cc2)NC(=O)[C@@H](N)CCCCN)C(C)C)CSC1=O — EC50 (Accessory gene regulator protein C (Staphylococcus epidermidis, UniProt O86861)): 1020 nM
CC(C)C[C@H](NC(=O)[C@H](CCC(=O)O)NC(=O)[C@H](C)NC(=O)[C@H](CCC(=O)O)NC(=O)[C@H](CCC(=O)O)NC(=O)[C@H](Cc1c[nH]cn1)NC(=O)[C@H](CCCNC(=N)N)NC(=O)[C@H](CCC(=O)O)NC(=O)[C@H](CC(N)=O)NC(=O)[C@H](CCCCN)NC(=O)[C@H](CC(C)C)NC(=O)[C@H](CCCNC(=N)N)NC(=O)[C@H](CCC(N)=O)NC(=O)[C@H](CC(C)C)NC(=O)[C@H](CCC(=O)O)NC(=O)[C@H](C)NC(=O)[C@H](CC(=O)O)NC(=O)[C@H](C)NC(=O)[C@@H](NC(=O)[C@H](CC(C)C)NC(=O)[C@H](CCCCN)NC(=O)[C@H](CCC(=O)O)NC(=O)[C@@H](N)C(C)C)[C@@H](C)O)C(=O)N[C@@H](CCC(=O)O)C(=O)N[C@@H](CCCNC(=N)N)C(=O)N[C@@H](CC(C)C)C(=O)N[C@@H](CCCCN)C(=O)N[C@@H](CO)C(=O)N[C@@H](CCC(=O)O)C(=O)N[C@@H](Cc1ccc(O)cc1)C(=O)O — EC50 (Plasminogen (PLG, Homo sapiens, UniProt P00747); plasminogen activation, chromogenic substrate S-2251; pH 7.4, 25 °C, chloride buffer, with: equimolar streptokinase 20 nM, Glu-plasminogen 27 nM): 78800 ± 11600 nM
CC(=O)N[C@@H](CCCNC(=N)N)C(=O)N[C@@H](CCCNC(=N)N)C(=O)N[C@H](C(=O)N1Cc2ccccc2C[C@H]1C(N)=O)[C@@H](c1ccccc1)c1c[nH]c2ccccc12 — EC50 (Melanocortin receptor 4; cAMP, agonist, AlphaScreen): > 100000 nM
CNC(C)CCc1ccccc1Cl (racemic) — EC50 (DRD3; β-arrestin recruitment, agonist): 6800 nM
CC(C)C[C@@H]1NC(=O)[C@H](Cc2ccc(O)cc2)NC(=O)[C@@H](CO)NC(=O)[C@H](C)NC(=O)[C@@H](NC(=O)[C@@H]2CCCN2C(=O)[C@H](CC(N)=O)NC(=O)[C@H](Cc2ccc(O)cc2)NC(=O)[C@H](CCCCN)NC(=O)[C@H](C)NC(=O)[C@H](C)NC(=O)[C@@H](N)CC(N)=O)CSC1=O — EC50 (Accessory gene regulator protein C (Staphylococcus epidermidis, UniProt Q8VSX2)): 145 nM
Nc1ncnc2c1ncn2C1OC(COP(=O)(O)OP(=O)(O)OCC2OC(O)C(O)C2O)C(O)C1O (stereo not shown) — EC50 (TRPM2 (Nematostella vectensis, UniProt A7T1N0, R271A); channel activation, agonist, inside-out patch clamp; R271A, 2.5 µM PIP2, with: 125 µM Ca2+): 620 ± 50 nM
CC[C@H](C)[C@@H]1NC(=O)[C@H](C(C)C)NC(=O)[C@H](C)NC(=O)[C@H](CCCNC(=N)N)NC(=O)[C@H]([C@@H](C)CC)NC(=O)[C@](C)(NC(=O)[C@H](CCC(=O)O)NC(=O)[C@H](CCCNC(=N)N)NC(=O)CNC(=O)[C@H](CS)NC(=O)[C@H](CC(C)C)NC(=O)[C@H](CCCNC(=N)N)NC(=O)[C@@H](NC(=O)CNC(=O)[C@H](Cc2ccc(O)cc2)NC(=O)[C@@H]2CCCN2C(=O)[C@H](C)NC(=O)[C@H](C)NC(=O)[C@@H](N)CCCNC(=N)N)C(C)C)CCCC=CCCCCCC[C@@](C)(C(=O)N[C@@H](CS)C(=O)NCC(=O)NCC(=O)N[C@@H](CO)C(=O)N[C@@H](CCCNC(=N)N)C(=O)N[C@@H](Cc2c[nH]c3ccccc23)C(=O)O)NC(=O)[C@H](Cc2ccccc2)NC1=O — EC50 (RXFP3; cAMP, agonist): 3 nM
CC(=O)OCCCCCn1c2ccccc2c2cc(C(=O)c3cccc4ccccc34)ccc21 — EC50 (Cannabinoid receptor 1 (CNR1, Homo sapiens, UniProt P21554); cAMP, agonist, BRET): 195 nM
CC(N)CCc1ccccc1Cl (racemic) — EC50 (DRD3; GTPγS binding, agonist, radiometric; cell membranes): 1100 nM and ~1000 nM and 1110 nM

Repeated from above:
CC(=O)OCCCCCn1c2ccccc2c2cc(C(=O)c3cccc4ccccc34)ccc21 — EC50 (Cannabinoid receptor 1 (CNR1, Homo sapiens, UniProt P21554); cAMP, agonist, BRET): 195 nM
CC1(C(=O)O)CCCC2(C)C1CCC1(C)c3cocc3CCC12 (stereo not shown) — EC50 (Progesterone receptor (PGR, Homo sapiens, UniProt P06401); binding, fluorescence polarization competition; ligand-binding domain): 5600 nM
